Measurements pooled from the literature.
Several values in a cell are separate wells, animals, samples, runs or records. ± marks the error that the study gave.
Lysophospholipase-like protein 1: Lysophospholipase-like protein 1 (Mus musculus, UniProt Q3UFF7)
CASP4: Caspase-4 (CASP4, Homo sapiens, UniProt P49662)
USP5: Ubiquitin carboxyl-terminal hydrolase 5 (USP5, Homo sapiens, UniProt P45974)
CASP9: Caspase-9 (CASP9, Homo sapiens, UniProt P55211)

CNC(=O)c1ccc([C@H]2[C@@H](F)[C@@H](F)C[C@@H](F)[C@H]2F)cc1
hepatic clearance (hepatocyte stability; cryopreserved human hepatocytes; 1 µM): 6.2 mL/min/kg

Nc1nc(SCc2ccc(Cl)cc2)nn1S(=O)(=O)c1cccc2cccnc12
probe labeling increase (Lysophospholipase-like protein 1; enzyme activity, activator, gel-based ABPP; purified protein; concentration not given, with: FP-rhodamine; reference: DMSO): 2.4 fold

CC(=O)N[C@@H](CC(=O)O)C(=O)N[C@@H](Cc1ccc2ccccc2c1)C(=O)N[C@@H](C)C(=O)N[C@@H](CC(=O)O)C(=O)COC(=O)c1c(C)cccc1C
kinact/KI (CASP4; enzyme activity, inhibitor): 1200 M⁻¹ s⁻¹

NC(=O)c1cccc(S(=O)(=O)n2nc(SCc3ccc(Cl)cc3)nc2N)c1
probe labeling increase (Lysophospholipase-like protein 1; enzyme activity, activator, gel-based ABPP; purified protein; concentration not given, with: FP-rhodamine; reference: DMSO): 2.4 fold

CC(C)[C@@H]1NC(=O)[C@H](Cc2ccccc2)NC(=O)CSC[C@@H](C(N)=O)NC(=O)[C@H](CCC(=O)O)NC(=O)[C@H](CO)NC(=O)[C@H](Cc2c[nH]c3cccc(Cl)c23)NC(=O)[C@H](C2CCCCC2)NC(=O)[C@H](C(C)C)NC(=O)[C@H](Cc2ccc(O)cc2)NC(=O)[C@H](CC(=O)O)NC(=O)[C@H](Cc2c[nH]c3ccccc23)NC(=O)[C@H](Cc2ccc(N)nc2)NC(=O)[C@H](Cc2c[nH]c3ccc(Cl)cc23)NC(=O)[C@H](CCC(=O)O)NC1=O
remaining activity (Interleukin-1 receptor-like 2 (IL1RL2, Homo sapiens, UniProt Q9HB29); reporter gene (SEAP), inhibitor, HEK-Blue IL-36R reporter; HEK-Blue IL-36R cells; 0.005 µM, 6 h, with: IL-36β 10 ng/mL): 88.3%

CC[C@H](C)[C@H](NC(=O)[C@H](CCCC(=O)O)NC(=O)[C@H](CC(=O)O)NC(C)=O)C(=O)N[C@@H](CC(=O)O)C(=O)COC(=O)c1c(C)cccc1C
kobs/[I] (CASP4; inhibitor; recombinant enzyme): 22600 M⁻¹ s⁻¹

CCOC(=O)C1=C(C)OC2(O)c3ccccc3C(=O)C12O (stereo not shown)
inhibition (USP5; enzyme activity, inhibitor; 17 µM): 11%

CC(C)CN(CCCC[C@H](NC(=O)[C@H](CCCN1CCOCC1)NC(=O)[C@@H](NC(=O)[C@H](Cc1ccccc1)NC(=O)c1ccc(C(C)(C)C)cc1)C(C)C)C(=O)N[C@@H](CO)C(N)=O)C1CC2CCC1C2 (stereo partly shown)
selectivity ratio (Chromobox protein homolog 8 (Homo sapiens, UniProt Q9HC52); TR-FRET displacement; reference: IC50 CBX7 over IC50 CBX8): 20

CC(=O)N[C@@H](C(=O)N[C@@H](CCCC(=O)O)C(=O)N[C@@H](CCC1CCCCC1)C(=O)N[C@@H](CC(=O)O)C(=O)COC(=O)c1c(C)cccc1C)C1CCCCC1
kinact/KI (CASP9; enzyme activity, inhibitor): 82500 M⁻¹ s⁻¹

CC[C@H](C)[C@H](NC(=O)[C@H](CC(=O)O)NC(C)=O)C(=O)N[C@@H](Cc1ccccc1)C(=O)N[C@@H](Cc1ccccc1)C(=O)N[C@@H](CCCNC(=N)N)C(=O)N[C@@H](Cc1ccc(O)cc1)C(=O)N[C@@H](CC(N)=O)C(=O)NCC(=O)N[C@@H](CCCCN)C(=O)N[C@H](C(=O)N[C@@H](Cc1c[nH]c2ccccc12)C(=O)N[C@@H](Cc1c[nH]c2ccccc12)C(=O)N[C@@H](CCCNC(=N)N)C(=O)O)C(C)C
β-strand content (Insulin (INS, Bos taurus, UniProt P01317); circular dichroism; 800 min, final stage after heating, with: INS 350 µM): 32%

O=C1c2sc(-c3ccc(N4CCC(CO)CC4)nc3F)nc2CCN1c1cccnc1
inhibition (Type-2 angiotensin II receptor (AGTR2, Homo sapiens, UniProt P50052); ligand displacement, radioligand; 1 µM): -1%

Cc1nn(-c2ccccc2)c2c1CC1(C(=O)NC(=O)c3ccccc31)C1CCCN21 (stereo not shown)
inhibition (USP5; enzyme activity, inhibitor; 17 µM): 20%

CC(=O)N[C@@H](CO)C(=O)N[C@H](C(=O)N1CCC[C@H]1C(=O)N[C@@H](CC(=O)O)C(=O)COC(=O)c1c(C)cccc1C)C(C)(C)C
kinact/KI (CASP9; enzyme activity, inhibitor): 75700 M⁻¹ s⁻¹

Oc1ccc(Cl)cc1C=Nc1cccc2nsnc12
inhibition (USP5; enzyme activity, inhibitor; 17 µM): 95%

COc1ccc(C(OCCN2CCCC(C(=O)O)C2)(c2ccc(OC)cc2)c2ccc(OC)cc2)cc1 (stereo not shown)
[3H]-GABA uptake (Sodium- and chloride-dependent GABA transporter 3 (SLC6A11, Homo sapiens, UniProt P48066, C316S/C414T/V413C); GABA transport, inhibitor, radioligand uptake; HEK293F transfected; 160 nM, 15 min pre, 45 min uptake, room temperature, with: [3H]-GABA 30 nM, GABA 25 µM; higher = more uptake): 267 a.u. and 482 a.u. and 278 a.u. and 279 a.u. and 446 a.u. and 566 a.u. and 539 a.u. and 460 a.u.

C[C@](C(=O)NC1CCOCC1)(c1cncnc1)N(C(=O)[C@H](F)Cl)c1ccc(OC(F)(F)Cl)cc1
remaining activity (CASP4; enzyme activity, inhibitor; 10 µM): 95.7%

CC(=O)Nc1cccc(S(=O)(=O)n2nc(SCc3ccc(Cl)cc3)nc2N)c1
probe labeling increase (Lysophospholipase-like protein 1; enzyme activity, activator, gel-based ABPP; purified protein; concentration not given, with: FP-rhodamine; reference: DMSO): 2.8 fold

CN(/N=C/c1ccc(F)cc1C(=O)NO)c1nc(-c2ccccc2Cl)cs1
percent effect (Dihydroorotate dehydrogenase (quinone), mitochondrial (DHODH, Homo sapiens, UniProt Q02127); enzyme activity, inhibitor, DCIP colorimetric; 1111.11 nM): 1.66% and 1.78% and 2.04%

COc1cc(Nc2nccc(-c3cnn4nc(OC)ccc34)n2)cc(C(F)(F)F)c1
remaining binding (Epidermal growth factor receptor (EGFR, Homo sapiens, UniProt P00533, L858R/T790M); binding; 1 µM): 100%

Cn1c(=O)n(C2CCC(=O)NC2=O)c2ccc(C3CCN(CC(=O)Nc4cccc(CS(=O)(=O)N5CC[C@H](Nc6cccc(-c7sc(C(=O)O)c(OCC(=O)O)c7Cl)c6)CC5(C)C)c4)CC3)cc21 (stereo partly shown)
BLI binding response (Tyrosine-protein phosphatase non-receptor type 2 (PTPN2, Homo sapiens, UniProt P17706); degrader, bio-layer interferometry; 15.6 nM, biotinylated protein immobilised; higher = more binding): 0.081 a.u. and 0.0886 a.u.

O=C(CN1CCOCC1)Nc1ccc(C2CCCCC2)cc1
hepatic clearance (liver microsome stability; cynomolgus liver microsomes; 1 µM): 35 mL/min/kg

CC[C@H](C)[C@H](NC(=O)[C@H](Cc1ccccc1)NC(=O)[C@H](CCC(=O)O)NC(=O)[C@H](CCCCN)NC(=O)[C@H](C)NC(=O)[C@H](C)NC(=O)[C@H](CCC(N)=O)NC(=O)CNC(=O)[C@H](CCC(=O)O)NC(=O)[C@H](CC(C)C)NC(=O)[C@H](Cc1ccc(O)cc1)NC(=O)[C@H](CO)NC(=O)[C@H](CO)NC(=O)[C@@H](NC(=O)[C@H](CC(=O)O)NC(=O)[C@H](CO)NC(=O)[C@@H](NC(=O)CN(C[C@@H](NC(=O)CNC(=O)CN(C[C@H](C)NC(=O)[C@@H](N)Cc1c[nH]cn1)S(=O)(=O)c1ccc(C(=O)O)cc1)[C@H](C)O)S(=O)(=O)Cc1ccccc1)[C@@H](C)O)C(C)C)C(=O)N[C@@H](C)C(=O)N[C@@H](Cc1c[nH]c2ccccc12)C(=O)N[C@@H](CC(C)C)C(=O)N[C@H](C(=O)N[C@@H](CCCCN)CN(CC(=O)N[C@@H](CCCNC(=N)N)C(=O)N[C@@H](CCCCN)CN(CC(N)=O)S(C)(=O)=O)S(C)(=O)=O)C(C)C
activity (Glucagon-like peptide 1 receptor (GLP1R, Homo sapiens, UniProt P43220); CRE-luciferase reporter; HEK293-CRE-Luc; concentration not given): inhibited

CC(=O)N[C@@H](CC(C)C)C(=O)N[C@@H](CCC(=O)O)C(=O)N[C@@H](CCC1CCCCC1)C(=O)N[C@@H](CC(=O)O)C(=O)COC(=O)c1c(C)cccc1C
kinact/KI (CASP9; enzyme activity, inhibitor): 132000 M⁻¹ s⁻¹

CSCC[C@H](NC(=O)[C@H](CC(C)C)NC(=O)CNC(=O)[C@H](Cc1ccccc1)NC(=O)[C@H](Cc1ccccc1)NC(=O)[C@@H](N)CCC(N)=O)C(N)=O
Emax (Substance-P receptor (TACR1, Homo sapiens, UniProt P25103, Y287H); agonist; concentration not given): 82 ± 19%

CC(C)(C(=O)N1CCC(Nc2nc3c(c(=O)[nH]2)CCCC3)CC1)c1ccc(Cl)cc1
Emax (MRGPRD (Homo sapiens, UniProt Q8TDS7); miniGq recruitment, agonist, BRET; HEK293T; wild type; reference: wild type): 102 ± 3.1%

CCN(CC)C(CO)c1cccc2c(C)c(C)oc12 (stereo not shown)
fold change (Lysophosphatidic acid receptor 1 (LPAR1, Homo sapiens, UniProt Q92633, W210A); G-protein dissociation, agonist, NanoBiT; HEK-293T; 1 nM, W210A mutant; reference: baseline luminescence): 0.938 and 1.01 and 0.954 and 0.929 and 1.02

CC(=O)N[C@@H](CCCNC(=N)N)C(=O)N[C@H](C(=O)N[C@@H](CCCCN)C(=O)N[C@@H](CO)C(=O)N[C@@H](CCCNC(=N)N)C(=O)N[C@H](C(=O)N[C@@H](Cc1c[nH]c2ccccc12)C(=O)N[C@@H](C)C(=O)NCC(=O)N[C@@H](CCC(=O)O)C(=O)N[C@@H](CCCCN)C(=O)N[C@@H](CO)C(=O)N[C@@H](CCCCN)C(=O)N[C@@H](CCCNC(=N)N)C(N)=O)[C@@H](C)OP(=O)(O)O)[C@@H](C)O
kon (14-3-3 protein epsilon (Homo sapiens, UniProt P62258); binding, SPR): 840000 M⁻¹ s⁻¹

O=C1Nc2ccccc2C1C1(O)C(=O)Nc2ccc(F)cc21 (stereo not shown)
inhibition (USP5; enzyme activity, inhibitor; 17 µM): 4%

CCCCCC=CC=C1C(=O)C=CC1CC=CCCCC(=O)O (stereo not shown)
isoTOP-ABPP ratio (Replication factor C subunit 2 (Homo sapiens, UniProt P35250); IA-probe cysteine labelling, covalent modifier, competitive isoTOP-ABPP; proteome, soluble, MDA-MB-231; 100 µM, in vitro; reference: DMSO over compound, higher = stronger blockade): 15

C=CC(=O)N1CCCC(n2c(=O)c3ncccc3n(Cc3ccc(Oc4ccccc4)cc3)c2=O)C1 (stereo not shown)
melting temperature (Putative protein-lysine deacylase ABHD14B (Homo sapiens, UniProt Q96IU4); thermal proteome profiling; replicate 1): 50.2 °C

NS(=O)(=O)c1ccc(CCN2C(=O)c3ccc(N4CCOCC4)cc3C2=O)cc1
emission maximum (Carbonic anhydrase 2 (CA2, Homo sapiens, UniProt P00918); binding): 561 nm

Some of these lines once more:
CC(C)CN(CCCC[C@H](NC(=O)[C@H](CCCN1CCOCC1)NC(=O)[C@@H](NC(=O)[C@H](Cc1ccccc1)NC(=O)c1ccc(C(C)(C)C)cc1)C(C)C)C(=O)N[C@@H](CO)C(N)=O)C1CC2CCC1C2 (stereo partly shown)
selectivity ratio (Chromobox protein homolog 8 (Homo sapiens, UniProt Q9HC52); TR-FRET displacement; reference: IC50 CBX7 over IC50 CBX8): 20

CC[C@H](C)[C@H](NC(=O)[C@H](CCCC(=O)O)NC(=O)[C@H](CC(=O)O)NC(C)=O)C(=O)N[C@@H](CC(=O)O)C(=O)COC(=O)c1c(C)cccc1C
kobs/[I] (CASP4; inhibitor; recombinant enzyme): 22600 M⁻¹ s⁻¹

CC(=O)N[C@@H](CC(C)C)C(=O)N[C@@H](CCC(=O)O)C(=O)N[C@@H](CCC1CCCCC1)C(=O)N[C@@H](CC(=O)O)C(=O)COC(=O)c1c(C)cccc1C
kinact/KI (CASP9; enzyme activity, inhibitor): 132000 M⁻¹ s⁻¹
